Published values pooled from the literature.
Every numbered part comes from another study and shows a few of its results, in no order.

Block 1
Cell line: HEK-293T
Read-out: pseudovirus infection
Method: FDA-approved drug library screen
Organism: VSV pseudotyped with SARS-CoV-2 spike
Tested at: 10 µM
Time: 16 h
Baseline: vehicle-treated
Endpoint: GFP-positive cells
CC(C)Cc1ccc(C(C)C(=O)O)cc1 (stereo not shown): 94%
CCn1nc(C(=O)O)c(=O)c2cc3c(cc21)OCO3: 97.7%
CS(=O)(=O)c1ccc(C2=C(c3ccccc3)C(=O)OC2)cc1: 98.9%

Block 2
Target: Replicase polyprotein 1ab, nsp12 with nsp7/nsp8 (rep, Severe acute respiratory syndrome coronavirus 2, UniProt P0DTD1)
Mode: inhibitor
Organism: SARS-CoV-2
Tested at: 20 µM
Endpoint: inhibition
OCCOCCN1CCN(C(c2ccccc2)c2ccc(Cl)cc2)CC1 (stereo not shown): 78.8%
CC1=NN(c2ccc(C)c(C)c2)C(=O)/C1=N\Nc1cccc(-c2cccc(C(=O)O)c2)c1O: 103%
CCOc1ccc2nc3cc(N)ccc3c(N)c2c1: 91.6%
COc1cc(NC(C)CCCN)c2ncccc2c1 (stereo not shown): 100%
Cc1cc(N)c2ccccc2[n+]1CCCCCCCCCC[n+]1c(C)cc(N)c2ccccc21: 98.4%
O=C(N/N=C/c1ccc([N+](=O)[O-])o1)c1cc([N+](=O)[O-])cc([N+](=O)[O-])c1O: 112%
C=C1c2cccc(O)c2C(=O)C2=C(O)[C@]3(O)C(=O)C(C(N)=O)=C(O)[C@@H](N(C)C)[C@@H]3[C@@H](O)[C@H]12: 80.7%
O=C(O)c1cc(/N=N/c2ccc(O)c(C(=O)O)c2)ccc1O: 82.3%

Block 3
SMILES: O=C1C=CC(=O)C2=C1C1c3ccccc3C2c2ccccc21
Read-out: enzyme activity
Endpoint: inhibition
rep main protease: Replicase polyprotein 1ab, main protease (rep, Severe acute respiratory syndrome coronavirus 2, UniProt P0DTD1)
rep main protease; inhibitor; 20 µM: -14.3%
Replicase polyprotein 1ab, 3C-like proteinase (rep, Middle East respiratory syndrome-related coronavirus, UniProt K9N7C7); inhibitor; 10 µM: 45%
rep main protease; 20 µM, with DTT: -14.3%
rep main protease; inhibitor; 20 µM, primary screen: 99.2%

Other studies, line by line
Nc1ncnc2c([C@@H]3N[C@H](CO)[C@@H](O)[C@H]3O)c[nH]c12
inhibition (Venezuelan equine encephalitis virus; viral replication; HeLa, SH3; 6.3 µM): 0.1%

For quick reference, copied from above (block 1):
CC(C)Cc1ccc(C(C)C(=O)O)cc1 (stereo not shown): 94%
CCn1nc(C(=O)O)c(=O)c2cc3c(cc21)OCO3: 97.7%
